Measured values pooled from the literature.
Numbered parts are unrelated; each lists some results of a single study. Changes are numbered by the printed parent chain.
Chain of UniProt P09619 (whole entry, looked up): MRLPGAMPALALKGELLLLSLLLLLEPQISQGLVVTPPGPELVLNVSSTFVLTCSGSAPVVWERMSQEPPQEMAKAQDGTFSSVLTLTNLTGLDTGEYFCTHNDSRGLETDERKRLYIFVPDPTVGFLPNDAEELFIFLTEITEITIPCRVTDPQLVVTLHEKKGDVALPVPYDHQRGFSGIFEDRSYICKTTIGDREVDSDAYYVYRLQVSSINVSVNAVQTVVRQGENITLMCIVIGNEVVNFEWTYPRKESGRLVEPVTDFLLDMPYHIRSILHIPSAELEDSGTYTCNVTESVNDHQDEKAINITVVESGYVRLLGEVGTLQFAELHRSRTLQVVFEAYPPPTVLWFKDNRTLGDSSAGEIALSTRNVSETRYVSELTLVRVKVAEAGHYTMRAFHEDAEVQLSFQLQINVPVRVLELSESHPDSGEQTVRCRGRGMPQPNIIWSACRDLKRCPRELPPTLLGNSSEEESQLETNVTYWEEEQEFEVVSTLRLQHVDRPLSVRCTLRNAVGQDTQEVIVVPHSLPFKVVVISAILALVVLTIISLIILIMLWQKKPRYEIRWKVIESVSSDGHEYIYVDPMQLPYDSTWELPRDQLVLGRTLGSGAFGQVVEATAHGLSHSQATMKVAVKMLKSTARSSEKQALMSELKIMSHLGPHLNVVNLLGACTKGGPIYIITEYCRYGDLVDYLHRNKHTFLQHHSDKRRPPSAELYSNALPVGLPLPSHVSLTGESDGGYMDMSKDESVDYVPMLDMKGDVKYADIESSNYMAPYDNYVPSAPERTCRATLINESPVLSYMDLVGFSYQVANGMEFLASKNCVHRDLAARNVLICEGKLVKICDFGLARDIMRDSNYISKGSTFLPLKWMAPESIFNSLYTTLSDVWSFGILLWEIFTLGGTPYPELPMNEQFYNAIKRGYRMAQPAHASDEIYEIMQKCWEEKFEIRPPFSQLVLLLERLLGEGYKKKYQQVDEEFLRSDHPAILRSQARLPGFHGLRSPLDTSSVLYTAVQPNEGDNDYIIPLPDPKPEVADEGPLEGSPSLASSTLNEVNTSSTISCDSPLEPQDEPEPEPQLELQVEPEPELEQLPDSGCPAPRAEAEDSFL
Chain of UniProt Q9FX25 (whole entry, looked up): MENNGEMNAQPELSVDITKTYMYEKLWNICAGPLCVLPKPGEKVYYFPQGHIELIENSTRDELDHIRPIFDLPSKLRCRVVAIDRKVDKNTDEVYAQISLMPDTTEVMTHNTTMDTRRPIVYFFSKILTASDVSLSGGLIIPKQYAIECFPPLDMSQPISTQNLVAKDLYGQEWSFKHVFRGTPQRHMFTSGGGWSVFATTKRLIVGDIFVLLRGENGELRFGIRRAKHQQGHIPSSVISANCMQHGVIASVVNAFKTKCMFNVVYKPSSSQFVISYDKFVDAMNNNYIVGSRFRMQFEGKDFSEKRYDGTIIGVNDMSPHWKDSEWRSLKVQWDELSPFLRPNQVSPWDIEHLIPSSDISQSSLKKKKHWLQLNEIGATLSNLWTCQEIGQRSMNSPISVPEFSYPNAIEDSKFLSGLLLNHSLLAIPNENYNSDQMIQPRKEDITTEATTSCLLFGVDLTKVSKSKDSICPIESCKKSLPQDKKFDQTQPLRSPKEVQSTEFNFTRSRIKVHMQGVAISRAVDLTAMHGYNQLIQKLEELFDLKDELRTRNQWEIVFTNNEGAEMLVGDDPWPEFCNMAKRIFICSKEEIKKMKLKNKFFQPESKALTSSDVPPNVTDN
Chain of UniProt Q16513 (whole entry, looked up): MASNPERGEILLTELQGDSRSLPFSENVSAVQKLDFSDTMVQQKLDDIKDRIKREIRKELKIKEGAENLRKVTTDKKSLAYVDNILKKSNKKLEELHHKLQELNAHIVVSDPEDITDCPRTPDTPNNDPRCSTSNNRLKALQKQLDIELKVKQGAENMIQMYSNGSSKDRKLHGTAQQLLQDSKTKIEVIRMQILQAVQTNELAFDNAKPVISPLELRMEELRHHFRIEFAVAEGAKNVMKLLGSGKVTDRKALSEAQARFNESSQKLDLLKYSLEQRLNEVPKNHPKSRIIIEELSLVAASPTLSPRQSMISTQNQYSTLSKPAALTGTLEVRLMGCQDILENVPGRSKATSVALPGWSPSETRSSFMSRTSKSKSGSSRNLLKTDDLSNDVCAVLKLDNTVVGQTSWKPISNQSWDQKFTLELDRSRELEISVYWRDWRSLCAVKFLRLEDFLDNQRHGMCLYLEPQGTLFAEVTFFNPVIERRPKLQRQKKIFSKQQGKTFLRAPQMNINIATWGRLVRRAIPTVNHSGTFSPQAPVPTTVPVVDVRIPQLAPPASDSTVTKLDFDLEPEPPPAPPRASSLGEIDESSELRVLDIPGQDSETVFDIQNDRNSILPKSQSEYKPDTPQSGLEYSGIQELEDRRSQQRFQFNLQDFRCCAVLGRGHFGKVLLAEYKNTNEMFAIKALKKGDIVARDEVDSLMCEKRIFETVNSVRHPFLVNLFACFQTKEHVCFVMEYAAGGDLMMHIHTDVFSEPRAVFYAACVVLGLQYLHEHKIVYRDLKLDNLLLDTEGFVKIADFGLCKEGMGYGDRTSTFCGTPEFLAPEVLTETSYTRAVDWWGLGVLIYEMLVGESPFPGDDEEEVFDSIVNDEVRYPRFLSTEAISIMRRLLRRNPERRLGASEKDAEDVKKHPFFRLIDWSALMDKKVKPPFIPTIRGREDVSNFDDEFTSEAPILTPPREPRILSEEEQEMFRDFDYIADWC
Chain of UniProt Q86Y07 (whole entry, looked up): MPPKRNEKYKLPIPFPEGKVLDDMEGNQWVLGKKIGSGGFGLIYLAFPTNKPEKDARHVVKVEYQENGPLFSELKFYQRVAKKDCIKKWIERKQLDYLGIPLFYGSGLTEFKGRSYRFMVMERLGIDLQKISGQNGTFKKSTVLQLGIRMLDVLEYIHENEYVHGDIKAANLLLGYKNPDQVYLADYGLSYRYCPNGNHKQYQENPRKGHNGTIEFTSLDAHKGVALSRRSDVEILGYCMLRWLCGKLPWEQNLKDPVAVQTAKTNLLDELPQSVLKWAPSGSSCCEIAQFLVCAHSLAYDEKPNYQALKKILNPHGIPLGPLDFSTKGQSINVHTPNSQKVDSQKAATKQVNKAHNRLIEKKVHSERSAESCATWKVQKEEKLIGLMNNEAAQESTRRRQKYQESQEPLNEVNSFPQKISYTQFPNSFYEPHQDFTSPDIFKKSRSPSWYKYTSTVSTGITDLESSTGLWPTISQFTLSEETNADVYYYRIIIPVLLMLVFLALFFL
Chain of UniProt Q8LAL2 (whole entry, looked up): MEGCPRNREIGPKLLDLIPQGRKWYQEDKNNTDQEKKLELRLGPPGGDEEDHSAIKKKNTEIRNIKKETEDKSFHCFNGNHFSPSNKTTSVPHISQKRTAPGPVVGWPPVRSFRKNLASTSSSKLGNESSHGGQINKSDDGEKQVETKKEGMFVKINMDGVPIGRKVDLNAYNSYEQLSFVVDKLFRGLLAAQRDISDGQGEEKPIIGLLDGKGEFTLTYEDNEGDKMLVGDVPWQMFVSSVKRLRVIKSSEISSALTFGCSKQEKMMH
Chain of UniProt Q93WC4 (whole entry, looked up): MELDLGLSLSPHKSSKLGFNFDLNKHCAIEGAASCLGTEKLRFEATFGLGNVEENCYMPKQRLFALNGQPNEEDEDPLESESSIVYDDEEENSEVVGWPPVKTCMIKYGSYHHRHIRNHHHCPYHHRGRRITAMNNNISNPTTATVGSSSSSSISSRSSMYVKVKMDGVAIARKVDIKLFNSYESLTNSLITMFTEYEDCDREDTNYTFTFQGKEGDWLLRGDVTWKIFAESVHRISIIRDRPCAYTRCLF
Chain of UniProt Q9HC98 (whole entry, looked up): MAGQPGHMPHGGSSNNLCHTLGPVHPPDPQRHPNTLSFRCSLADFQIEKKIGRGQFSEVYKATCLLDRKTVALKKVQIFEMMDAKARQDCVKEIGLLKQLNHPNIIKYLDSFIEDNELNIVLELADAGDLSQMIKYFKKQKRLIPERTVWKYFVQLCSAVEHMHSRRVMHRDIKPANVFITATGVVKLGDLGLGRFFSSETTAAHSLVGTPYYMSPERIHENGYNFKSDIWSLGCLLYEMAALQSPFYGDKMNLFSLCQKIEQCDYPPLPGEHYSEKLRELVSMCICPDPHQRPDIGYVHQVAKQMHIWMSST

Block 1 — method: RNAcompete; form: RNA; medium: in vitro; tested at: 20 nM; setting: 7-mer, probes averaged, single round; reference: mean of 7-mers; direction: higher = stronger binding
Target: PABPC1L2, full length, GST fusion (mouse, UniProt A0ABA7IW68)
Residues (chain): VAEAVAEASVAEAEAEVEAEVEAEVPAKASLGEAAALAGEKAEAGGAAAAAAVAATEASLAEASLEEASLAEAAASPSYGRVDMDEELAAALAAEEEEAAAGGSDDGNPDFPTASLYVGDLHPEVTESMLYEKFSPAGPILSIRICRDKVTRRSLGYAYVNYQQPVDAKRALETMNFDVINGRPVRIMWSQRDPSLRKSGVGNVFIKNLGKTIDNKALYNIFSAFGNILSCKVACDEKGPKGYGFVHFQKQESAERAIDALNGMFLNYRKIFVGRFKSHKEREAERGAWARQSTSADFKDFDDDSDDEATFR
With `CGACUGG` the 7-mer Z-score was 0.0189.
For `CACACUU`, the 7-mer Z-score was -0.142.
`AUCGAUA` gave a 7-mer Z-score of 0.0841.
`GUCGAAU` has a 7-mer Z-score of -0.204.
For `AGAACCU`, the 7-mer Z-score was -0.237.
The 7-mer Z-score of `UGGUCCU` is reported as 0.0533.
`UUUCCUG` has a 7-mer Z-score of -0.296.
The 7-mer Z-score of `AGAGUUG` is reported as -0.208.

Block 2 — method: two-hybrid; reference: out of 4 tests; direction: higher = firmer interaction
Partner: ARF18 482-602 (Arabidopsis thaliana, UniProt Q9C5W9)
Target sequence (chain): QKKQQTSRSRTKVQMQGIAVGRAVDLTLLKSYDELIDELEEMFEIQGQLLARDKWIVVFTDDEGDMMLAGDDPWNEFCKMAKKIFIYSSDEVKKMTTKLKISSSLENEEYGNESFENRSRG
`ARF13 (Arabidopsis thaliana, UniProt Q9FX25)` has a positive tests of 0.
The positive tests of `ETT (Arabidopsis thaliana, UniProt O23661)` is reported as 0.
`IAA26 (Arabidopsis thaliana, UniProt Q8LAL2)` gave a positive tests of 0.
The positive tests of `IAA29 (Arabidopsis thaliana, UniProt Q93WC4)` is reported as 0.

Block 3 — method: competition with immobilised ligand; tested at: 1 µM
Structure (SMILES): O=C(O)c1cc(-c2ccc(C3CCNCC3)cc2)c2ccc(-c3ccc(C(F)(F)F)cc3)cc2c1
The remaining binding was 100% (CAMK1 (Homo sapiens, UniProt Q14012); cell-free assay).
The remaining binding was 86% (BLK (Homo sapiens, UniProt P51451); cell-free assay).
For VRK2 (Homo sapiens, UniProt Q86Y07); cell-free assay: remaining binding read 100%.
It gave 100% for remaining binding (CDK11A (Homo sapiens, UniProt Q9UQ88); binding).
Macrophage colony-stimulating factor 1 receptor, autoinhibited (CSF1R, Homo sapiens, UniProt P07333); cell-free assay — remaining binding: 85%.
For PDGFRB (Homo sapiens, UniProt P09619); cell-free assay: remaining binding read 100%.
LYN (Homo sapiens, UniProt P07948); cell-free assay — remaining binding: 100%.
For EPHB2 (Homo sapiens, UniProt P29323); cell-free assay: remaining binding read 100%.
It gave 100% for remaining binding (MAPKAPK5 (Homo sapiens, UniProt Q8IW41); cell-free assay).
For NEK6 (Homo sapiens, UniProt Q9HC98); cell-free assay: remaining binding read 100%.
It gave 100% for remaining binding (PKN2 (Homo sapiens, UniProt Q16513); cell-free assay).
It gave 100% for remaining binding (RIOK3 (Homo sapiens, UniProt O14730); cell-free assay).
For FLT3 (Homo sapiens, UniProt P36888, ITD); cell-free assay: remaining binding read 99%.

Block 4 — target: CCNB3, cyclin fold, Cln2 fusion (human); method: yeast growth competition, sequencing; medium: yeast; setting: weak parent motif; reference: not given; direction: higher = stronger binding
Starting sequence: MICAL3 docking peptide (human); LQLRRQLSFSEDS; partner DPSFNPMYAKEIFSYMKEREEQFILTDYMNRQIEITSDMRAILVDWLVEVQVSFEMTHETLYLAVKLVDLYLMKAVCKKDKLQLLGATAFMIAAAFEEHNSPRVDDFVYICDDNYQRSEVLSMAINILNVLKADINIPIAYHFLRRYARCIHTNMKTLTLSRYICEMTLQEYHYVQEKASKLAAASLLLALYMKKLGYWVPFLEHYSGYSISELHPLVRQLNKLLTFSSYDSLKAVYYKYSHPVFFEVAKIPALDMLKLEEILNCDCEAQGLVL
`LQLYRQLSFSEDS [R4Y]` — result for “normalised enrichment score”: 0.0101.
`LQYRRQLSFSEDS [L3Y]`: “normalised enrichment score” 0.0604.
`LQLRRQLSFLEDS [S10L]`: “normalised enrichment score” 0.312.
`LQGRRQLSFSEDS [L3G]`: “normalised enrichment score” 0.367.
For `LQLRRQLSLSEDS [F9L]`, “normalised enrichment score” read -0.396.
`LQLRRQKSFSEDS [L7K]` — result for “normalised enrichment score”: -0.259.
For `LQLRRSLSFSEDS [Q6S]`, “normalised enrichment score” read 0.408.
For `LQLRRQLSKSEDS [F9K]`, “normalised enrichment score” read 0.148.

A few entries again (block 3):
The remaining binding was 86% (BLK (Homo sapiens, UniProt P51451); cell-free assay).
For VRK2 (Homo sapiens, UniProt Q86Y07); cell-free assay: remaining binding read 100%.
It gave 100% for remaining binding (CDK11A (Homo sapiens, UniProt Q9UQ88); binding).
Macrophage colony-stimulating factor 1 receptor, autoinhibited (CSF1R, Homo sapiens, UniProt P07333); cell-free assay — remaining binding: 85%.
